Assay results collected from several papers.
± gives the spread as reported.
Cell line: T47D

Compound	effect on	technique	time	IC50
O=C1N=C(N2N=C(c3cccs3)CC2c2ccc(F)cc2)SC1=Cc1ccc(O)cc1 (centres unmarked)				1.66 ± 0.1 µM
Oc1cc2c3c(c1)COc1cc(O)cc(c1-3)CC2	cell growth or viability	MTT	48 h	111 µM
Cc1ccc(C(C)C)cc1.Oc1ccccc1C=NNC1=Nc2ccccc2-c2[nH]c3ccc(Br)cc3c2C1.[Cl-].[Cl][Os+]	cell growth or viability	MTT	96 h	3.5 µM
Cc1ccc(C2=NN(C3=NC(=O)/C(=C/c4ccc(N(C)C)cc4)S3)C(c3ccc(F)cc3)C2)cc1 (centres unmarked)	cell growth or viability	MTT		43.1 µM
O=C1/C(=C/c2ccc(B(O)O)cc2)CC/C1=C\c1ccc(B(O)O)cc1	cell growth or viability	MTT	24 h	170 µM
O=C1N=C(N2N=C(c3cccs3)CC2c2ccc(F)cc2)S/C1=C\c1ccccc1 (centres unmarked)	cell growth or viability	MTT		12.9 µM
Cc1cc(C=O)cc(C)c1Oc1cc(Nc2ccc(C#N)cn2)nc2cnccc12			48 h	> 126 µM
Cc1ccc(-c2nc(-c3cccnc3)[nH]c2-c2ccc(C)cc2)cc1	cell growth or viability	SRB	24 h	> 100 µM
Cc1cc(/C=C/C#N)cc(C)c1Oc1cc(Nc2ccc(C#N)cn2)nc2cnccc12			48 h	> 120 µM
CCCCCCCCn1c(-c2cccnc2)nc(-c2ccccc2)c1-c1ccccc1	cell growth or viability	SRB	48 h	> 100 µM
Cc1cc(C=O)cc(C)c1Oc1cc(Nc2ccc(C#N)cn2)nc2ccncc12			48 h	> 126 µM
c1ccc(-c2nc(-c3cccnc3)[nH]c2-c2ccccc2)cc1	cell growth or viability	SRB	24 h	> 100 µM
Cc1ccc(C(C)C)cc1.Cc1ncc(CO)c(C=NNC2=Nc3ccccc3-c3[nH]c4ccc(Br)cc4c3C2)c1O.[Cl-].[Cl][Ru+]	cell growth or viability	MTT	96 h	5.8 µM
Cc1ccc(C2=NN(C3=NC(=O)/C(=C/c4ccccc4)S3)C(c3ccc(F)cc3)C2)cc1 (centres unmarked)	cell growth or viability	MTT		17.1 µM
CCCCCCCCCCCCn1c(-c2cccnc2)nc(-c2ccc(C)cc2)c1-c1ccc(C)cc1	cell growth or viability	SRB	24 h	> 100 µM
COCC[n+]1cn(C2CCCC2)c2ccccc21	cell growth or viability	MTT	48 h	33 µM
CCCCCCCCCCn1c(-c2cccnc2)nc(-c2ccc(C)cc2)c1-c1ccc(C)cc1	cell growth or viability	SRB	48 h	90.6 µM
COc1ccc(C2=NN(C3=NC(=O)/C(=C/c4ccc(N(C)C)cc4)S3)C(c3ccc(F)cc3)C2)cc1 (centres unmarked)	cell growth			> 100 µM
CCCCCCCCCCCCCCn1c(-c2cccnc2)nc(-c2ccc(C)cc2)c1-c1ccc(C)cc1	cell growth or viability	SRB	48 h	> 100 µM
Cc1cc(C#N)cc(C)c1Oc1cc(Nc2ccc(C#N)cc2)nc2ccncc12			48 h	> 128 µM

Excerpt of the above:
Compound	effect on	technique	time	IC50
O=C1/C(=C/c2ccc(B(O)O)cc2)CC/C1=C\c1ccc(B(O)O)cc1	cell growth or viability	MTT	24 h	170 µM
O=C1N=C(N2N=C(c3cccs3)CC2c2ccc(F)cc2)S/C1=C\c1ccccc1 (centres unmarked)	cell growth or viability	MTT		12.9 µM
Cc1cc(C=O)cc(C)c1Oc1cc(Nc2ccc(C#N)cn2)nc2cnccc12			48 h	> 126 µM
